Measurements of several laboratories.
Compare with care: the assays were run in different laboratories. ± marks the error that the study gave.

| SMILES | system | conditions | scale | quantity | result |
| --- | --- | --- | --- | --- | --- |
| CCCC[C@H](NC(=O)CNC(=O)CNC(=O)CN1CCN(CC(=O)O)CCN(CC(=O)O)CCN(CC(=O)O)CC1)C(=O)N[C@H]1CC(=O)NCCCC[C@@H](C(N)=O)NC(=O)[C@H](Cc2c[nH]c3ccccc23)NC(=O)[C@H](CCCNC(=N)N)NC(=O)[C@@H](Cc2ccccc2)NC(=O)[C@H](Cc2c[nH]cn2)NC1=O [gallium-67 labelled] | mouse C57, B16/F1 melanoma, urine | 2 h | – | urinary excretion | 84.9 % injected dose |
| CCCC[C@H](NC(=O)CNC(=O)CNC(=O)CN1CCN(CC(=O)O)CCN(CC(=O)O)CC1)C(=O)N[C@H]1CC(=O)NCCCC[C@@H](C(N)=O)NC(=O)[C@H](Cc2c[nH]c3ccccc23)NC(=O)[C@H](CCCNC(=N)N)NC(=O)[C@@H](Cc2ccccc2)NC(=O)[C@H](Cc2c[nH]cn2)NC1=O [copper-64 labelled] | C57 mouse female B16/F1 melanoma, urine | intravenous, 0.037 MBq, 4 h | – | urinary excretion | 91.5 ± 1.66% |
| CCCC[C@H](NC(=O)[C@H](CCC(=O)O)NC(=O)CNC(=O)CN1CCN(CC(=O)O)CCN(CC(=O)O)CCN(CC(=O)O)CC1)C(=O)N[C@H]1CC(=O)NCCCC[C@@H](C(N)=O)NC(=O)[C@H](Cc2c[nH]c3ccccc23)NC(=O)[C@H](CCCNC(=N)N)NC(=O)[C@@H](Cc2ccccc2)NC(=O)[C@H](Cc2c[nH]cn2)NC1=O [indium-111 labelled] | C57 mouse, female, B16/F1 melanoma, urine | intravenous, 0.037 MBq, 24 h | – | urinary excretion | 93.57 ± 0.12% |
| CCOc1ccc(Cc2cc([C@@H]3O[C@H](CO)[C@@H](O)[C@H](O[C@@H]4O[C@H](C(=O)O)[C@@H](O)[C@H](O)[C@H]4O)[C@H]3O)ccc2Cl)cc1 | mouse and rat, urine | – | relative to: rodent over human | urinary concentration ratio | 1 to 15 |
| CCCC[C@H](NC(=O)CNC(=O)CNC(=O)CN1CCN(CC(=O)O)CCN(CC(=O)O)CCN(CC(=O)O)CC1)C(=O)N[C@H]1CC(=O)NCCCC[C@@H](C(N)=O)NC(=O)[C@H](Cc2c[nH]c3ccccc23)NC(=O)[C@H](CCCNC(=N)N)NC(=O)[C@@H](Cc2ccccc2)NC(=O)[C@H](Cc2c[nH]cn2)NC1=O [copper-64 labelled] | C57 mouse female B16/F1 melanoma, urine | intravenous, 0.037 MBq, 2 h | – | urinary excretion | 62.7 ± 3.56% |
| CC1(C)C(=CC=C2C[N+](C)(C)CC(C=CC3=[N+](CCCCCC(=O)O)c4ccccc4C3(C)C)=C2Cl)N(CCCCCC(=O)O)c2ccccc21 | CD-1 mouse | intravenous, 25 nmol | relative to: dose | urinary excretion | 32% |
| CC1(C)C(/C=C/C2=C(Cl)C(=C/C=C3/N(CCCCCC(=O)O)c4ccccc4C3(C)C)/C[N+](C)(C)C2)=[N+](CCCCCC(=O)O)c2ccccc21 | CD-1 mouse, male | intravenous, 25 nmol, 4 h | relative to: injected dose | urinary excretion | 32% |
| CCCC[C@H](NC(=O)CNC(=O)CNC(=O)CN1CCN(CC(=O)O)CCN(CC(=O)O)CCN(CC(=O)O)CC1)C(=O)N[C@H]1CC(=O)NCCCC[C@@H](C(N)=O)NC(=O)[C@H](Cc2c[nH]c3ccccc23)NC(=O)[C@H](CCCNC(=N)N)NC(=O)[C@@H](Cc2ccccc2)NC(=O)[C@H](Cc2c[nH]cn2)NC1=O [indium-111 labelled] | C57 mouse, female, B16/F1 melanoma, urine | intravenous, 0.037 MBq, 0.5 h | – | urinary excretion | 60.8 ± 4.05% |

Some of these lines once more:
| SMILES | system | conditions | scale | quantity | result |
| --- | --- | --- | --- | --- | --- |
| CCCC[C@H](NC(=O)CNC(=O)CNC(=O)CN1CCN(CC(=O)O)CCN(CC(=O)O)CCN(CC(=O)O)CC1)C(=O)N[C@H]1CC(=O)NCCCC[C@@H](C(N)=O)NC(=O)[C@H](Cc2c[nH]c3ccccc23)NC(=O)[C@H](CCCNC(=N)N)NC(=O)[C@@H](Cc2ccccc2)NC(=O)[C@H](Cc2c[nH]cn2)NC1=O [copper-64 labelled] | C57 mouse female B16/F1 melanoma, urine | intravenous, 0.037 MBq, 2 h | – | urinary excretion | 62.7 ± 3.56% |
